# Published values pooled from the literature.
# Each line is one published result; not all experiments were run side by side. Values joined by “and” are separate records of one study, mostly repeats; a detail may differ.
Structure (SMILES),target or system,test,system,conditions,scale,quantity,value
O=C(N1CCC2(CC1)CC(CN1CCCS1(=O)=O)CCO2)C1(c2ccccc2)CCCC1 (stereo not drawn),Chikungunya virus,viral replication,,,,EC50,0.13 µM
N[C@H](CCC(=O)N[C@H](CCC[C@H](N)C(=O)O)C(=O)O)C(=O)O,Chikungunya virus,viral infection,,concentration not given,,infectivity,172% and 169% and 167% and 121%
CNC(=O)[C@@H](NC(=O)[C@H](CC(C)C)[C@H](O)C(=O)NO)C(C)(C)C,C2C12,,,"10 µM, together with: TN venom",reference: venom alone,viability difference,7.59%
Cc1oc(-c2cccc(Cl)c2)nc1CN1CCCC(C(=O)NCCc2ccc(Cl)cc2)C1 (stereo not drawn),SARS-CoV-2,"cytopathic effect, cell-based CPE",USA_WA1/2020,,,AC50,25.1 µM
CC[C@H](C)[C@H](NC(=O)[C@H](CC(C)C)NC(=O)[C@H](Cc1c[nH]c2ccccc12)NC(=O)[C@H](CCC(N)=O)NC(=O)[C@@H](NC(=O)[C@H](Cc1ccccc1)NC(=O)[C@H](C)NC(=O)[C@H](CCCCNC(=O)COCCOCCNC(=O)COCCOCCNC(=O)CC[C@H](NC(=O)CCCCCCCCCCCCCCCCCCC(=O)O)C(=O)O)NC(=O)[C@H](CCC(N)=O)NC(=O)[C@H](C)NC(=O)[C@@H](NC(=O)[C@H](CCCCN)NC(=O)[C@H](CC(=O)O)NC(=O)[C@H](CC(C)C)NC(=O)C(C)(C)NC(=O)[C@@H](NC(=O)[C@H](CO)NC(=O)[C@H](Cc1ccc(O)cc1)NC(=O)[C@H](CC(=O)O)NC(=O)[C@H](CO)NC(=O)[C@@H](NC(=O)[C@H](Cc1ccccc1)NC(=O)[C@@H](NC(=O)CNC(=O)[C@H](CCC(=O)O)NC(=O)C(C)(C)NC(=O)[C@@H](N)Cc1ccc(O)cc1)[C@@H](C)O)[C@@H](C)O)[C@@H](C)CC)[C@@H](C)CC)C(C)C)C(=O)N[C@@H](C)C(=O)NCC(=O)NCC(=O)N1CCC[C@H]1C(=O)N[C@@H](CO)C(=O)N[C@@H](CO)C(=O)NCC(=O)N[C@@H](C)C(=O)N1CCC[C@H]1C(=O)N1CCC[C@H]1C(=O)N1CCC[C@H]1C(=O)N[C@@H](CO)C(N)=O,,refers to: treatment-emergent vessel puncture site bruise,healthy subjects,"1.5 mg, multiple ascending dose",,subjects with adverse event,16.7%
Cn1c(=O)c(C(=O)CCN2CCOCC2)c(O)c2ccccc21,Chikungunya virus,viral replication,,"20 µM, added at 0 h post-infection",,inhibition,99%
O=C(Nc1ncc([N+](=O)[O-])s1)c1ccccc1O,Chikungunya virus,"viral protein synthesis, western blot",BHK-21,6 h,,lowest effective concentration,20 µM
Nc1ncnc2c([C@@H]3N[C@H](CO)[C@@H](O)[C@H]3O)c[nH]c12,Chikungunya virus,viral replication,"HeLa, AF 15561",1.6 µM,,inhibition,12.3%
CCN(CC)Cc1cc(Nc2ccnc3cc(Cl)ccc23)ccc1O,Chikungunya virus,replicon luciferase activity,BHK-21 CHIKV replicon cells,"20 µM, 48 h",,inhibition,≥ 80%
CCOc1cc2c(cc1NC(=O)c1ccc(C(C)(C)C)cc1)CCC2,Chikungunya virus,viral replication,NHDF,,,EC90,> 6 µM
O=C(N1CCC2(CC1)C[C@@H](CN1CCCCS1(=O)=O)CCO2)C1(c2ccccc2)CCCC1,Chikungunya virus,viral replication,,,,EC50,29 µM
COc1cc2c(cc1NC(=O)c1ccc(C(C)(C)C)cc1)CCC2,Chikungunya virus,viral replication,NHDF,,,EC90,> 6 µM
O=C(N1CCC2(CC1)C[C@H](CN1CCCCS1(=O)=O)CCO2)C1(c2cc(F)cc(F)c2)CCCC1,Chikungunya virus,viral replication,,,,EC50,0.36 µM
NC(=O)c1nc(F)c[nH]c1=O,Chikungunya virus,viral replication,"BHK-21, CHIKV",,,EC50,8.1 µM
CCc1ccc(Sc2cc(C(=O)NCCCN3CCCC(C)C3)c3ccccc3n2)cc1 (stereo not drawn),SARS-CoV-2,cytopathic effect,USA_WA1/2020,first round 5-point,,AC50,11.2 µM
CC(C)=CCC/C(C)=C/Cc1c(O)ccc(C(=O)/C=C/c2ccc(O)cc2)c1O,Chikungunya virus,,BHK-21 CHIKV replicon Gluc reporter,,reference: CC50 over EC50,selectivity index,1.66
CNc1nc(N)ncc1-c1cn([C@@H]2O[C@H](CO)[C@@H](O)[C@@]2(C)F)cn1,Chikungunya virus,,,concentration not given,,antiviral activity,inactive
Cc1nc2c(=O)n(C)c(=O)nc-2n(C)n1,Chikungunya virus,replicon Gluc reporter,BHK-21 CHIKV replicon Gluc reporter,"concentration not given, dose-dependent",,antiviral activity,active
Cc1cc(C)cc([C@@H]2C[C@H]2C(=O)NC(C(=O)NC(C)(C)C)c2ccc(C)c(C)c2)c1 (stereo partly drawn),Chikungunya virus,"viral protein expression, Western blot, refers to: nsP1, nsP2, capsid",BHK-21,6 h,,effective concentration,> 50 µM
COc1cc2c(cc1-c1cc(-c3ccc(C(C)(C)C)cc3)n[nH]1)CCCCC2,Chikungunya virus,viral replication,NHDF,,,EC90,1.5 µM
O=C1OC(CN2CCOCC2)CN1/N=C/c1ccc([N+](=O)[O-])o1 (stereo not drawn),Chikungunya virus,replicon luciferase activity,BHK-21 CHIKV replicon cells,"20 µM, 48 h",,inhibition,≥ 80%
CN(C)S(=O)(=O)NCC1CCOC2(CCN(C(=O)C3(c4cccc(C(F)(F)F)c4)CCCC3)CC2)C1 (stereo not drawn),Chikungunya virus,viral replication,MRC-5,6 h,,EC50,20 µM
COc1nc2c(cc1NC(=O)c1ccc(C(C)(C)C)cc1)CCCC2,Chikungunya virus,viral replication,NHDF,,,EC90,2.3 µM
CN(C)CCCN1c2ccccc2Sc2ccccc21,Chikungunya virus,replicon luciferase activity,BHK-21 CHIKV replicon cells,"20 µM, 48 h",,inhibition,≥ 80%
NC(=O)c1ncc[nH]c1=O,Chikungunya virus,"virus-induced cell death, MTS","U138, Brazil wild type",4 d,,IC50,34.2 µM
CC(C)(C)c1ccc(C(=O)Nc2ccc3c(c2)CCCCC3)cc1,Chikungunya virus,viral replication,NHDF,,,EC90,0.7 µM
Cn1cnc(Cn2c(=O)[nH]/c(=N\c3cc4cn(C)nc4cc3Cl)n(Cc3cc(F)c(F)cc3F)c2=O)n1,,,"human, moderate renal impairment","oral, 375 mg, decreased GFR TEAE, mild severity",,patients with adverse event,0%
Nc1ncnc2c1ncn2[C@@H]1O[C@@H]2COP(=O)(O)O[C@H]3[C@@H](O)[C@H](n4cnc5c(=O)[nH]cnc54)O[C@@H]3COP(=O)(O)O[C@H]2[C@H]1O,Chikungunya virus,"upregulated Reactome pathway, RNA sequencing, refers to: tRNA processing (R-HSA-72306)",HFF-1,,reference: CHIKV-infected untreated,fold enrichment,2.43
CCc1cc2c(cc1NC(=O)c1ccc(C(C)(C)C)cc1)CCCCC2,Chikungunya virus,viral replication,NHDF,,,EC90,1.7 µM
O=C(N1CCC2(CC1)CC(Oc1ccccn1)CCO2)C1(c2ccccc2)CCCC1 (stereo not drawn),Chikungunya virus,viral replication,,,,EC50,~1 µM
CCN(CC)CCCC(C)Nc1c2ccc(Cl)cc2nc2ccc(OC)cc12 (stereo not drawn),Chikungunya virus,replicon luciferase activity,BHK-21 CHIKV replicon cells,"20 µM, 48 h",,inhibition,≥ 80%
O=C(N1CCC2(CC1)CC(CNS(=O)(=O)CCCCl)CCO2)C1(c2ccccc2)CCCC1 (stereo not drawn),Chikungunya virus,viral replication,,,,EC50,~1 µM
Nc1nc2c(ncn2[C@@H]2O[C@@H]3COP(=O)(O)O[C@H]4[C@@H](O)[C@H](n5cnc6c(=O)[nH]c(N)nc65)O[C@@H]4COP(=O)(O)O[C@H]3[C@H]2O)c(=O)[nH]1,Chikungunya virus,viral infection,,concentration not given,,infectivity,102% and 158% and 167% and 172%

# For quick reference, copied from above:
Structure (SMILES),target or system,test,system,conditions,scale,quantity,value
Cc1cc(C)cc([C@@H]2C[C@H]2C(=O)NC(C(=O)NC(C)(C)C)c2ccc(C)c(C)c2)c1 (stereo partly drawn),Chikungunya virus,"viral protein expression, Western blot, refers to: nsP1, nsP2, capsid",BHK-21,6 h,,effective concentration,> 50 µM
COc1cc2c(cc1-c1cc(-c3ccc(C(C)(C)C)cc3)n[nH]1)CCCCC2,Chikungunya virus,viral replication,NHDF,,,EC90,1.5 µM
O=C1OC(CN2CCOCC2)CN1/N=C/c1ccc([N+](=O)[O-])o1 (stereo not drawn),Chikungunya virus,replicon luciferase activity,BHK-21 CHIKV replicon cells,"20 µM, 48 h",,inhibition,≥ 80%
CN(C)S(=O)(=O)NCC1CCOC2(CCN(C(=O)C3(c4cccc(C(F)(F)F)c4)CCCC3)CC2)C1 (stereo not drawn),Chikungunya virus,viral replication,MRC-5,6 h,,EC50,20 µM
COc1nc2c(cc1NC(=O)c1ccc(C(C)(C)C)cc1)CCCC2,Chikungunya virus,viral replication,NHDF,,,EC90,2.3 µM
